Results from different studies.
Compare with care: the assays were run in different laboratories.
B1: IL18 37-193 C74S/C104S/C112S/A162C/C163S/I185C (Homo sapiens, UniProt Q14116); chain YFGKLESKLSVIRNLNDQVLFIDQGNRPLFEDMTDSDSRDNAPRTIFIISMYKDSQPRGMAVTISVKSEKISTLSSENKIISFKEMNPPDNIKDTKSDIIFFQRSVPGHDNKMQFESSSYEGYFLCSEKERDLFKLILKKEDELGDRSCMFTVQNED
B2: designed binder (Homo sapiens); chain MASAARLTMMWEEVTCPICLDPFVEPVSIECGHSFCQECISQVGKGGGSVCPVCRQRFLLKNLRPNRQLANMVNNLKEISQEAREGTQGERCAVHGERLHLFCEKDGKALCWVCAQSRKHRDHAMVPLEEAAQEYQEKLQVALGELRRKQELAEKLEVEIAIKRADWKKTVETQKSRIHAEFVQQKNFLVEEEQRQLQELEKDEREQLRILGEKEAKLAQQSQALQELISELDRRCHSSALELLQEVIIVLERSESWNLKDLDITSPELRSVCHVPGLKKMLRTCAGGGGSGGGGSGGGGSRLDAPSYIEVRAVRDNWAVITWDYPLAEIDGFELTYGIKDVPGDRTTIKLTEDDYYYYIDYLKPDTEYEVSLISRRGDMSSNPAKITFKTGL
B3: EFR3A 721-791 (Homo sapiens, UniProt Q14156); chain SNTEEITFEALKKAIDTSGMEEQEKEKRRLVIEKFQKAPFEEIAAQCESKANLLHDRLAQILELTIRPPPS
B4: human transketolase; sequence looked up; chain MESYHKPDQQKLQALKDTANRLRISSIQATTAAGSGHPTSCCSAAEIMAVLFFHTMRYKSQDPRNPHNDRFVLSKGHAAPILYAVWAEAGFLAEAELLNLRKISSDLDGHPVPKQAFTDVATGSLGQGLGAACGMAYTGKYFDKASYRVYCLLGDGELSEGSVWEAMAFASIYKLDNLVAILDINRLGQSDPAPLQHQMDIYQKRCEAFGWHAIIVDGHSVEELCKAFGQAKHQPTAIIAKTFKGRGITGVEDKESWHGKPLPKNMAEQIIQEIYSQIQSKKKILATPPQEDAPSVDIANIRMPSLPSYKVGDKIATRKAYGQALAKLGHASDRIIALDGDTKNSTFSEIFKKEHPDRFIECYIAEQNMVSIAVGCATRNRTVPFCSTFAAFFTRAFDQIRMAAISESNINLCGSHCGVSIGEDGPSQMALEDLAMFRSVPTSTVFYPSDGVATEKAVELAANTKGICFIRTSRPENAIIYNNNEDFQVGQAKVVLKSKDDQVTVIGAGVTLHEALAAAELLKKEKINIRVLDPFTIKPLDRKLILDSARATKGRILTVEDHYYEGGIGEAVSSAVVGEPGITVTHLAVNRVPRSGKPAELLKMFGIDRDAIAQAVRGLITKA
Sequence of UniProt Q9HAU5 (whole entry, looked up): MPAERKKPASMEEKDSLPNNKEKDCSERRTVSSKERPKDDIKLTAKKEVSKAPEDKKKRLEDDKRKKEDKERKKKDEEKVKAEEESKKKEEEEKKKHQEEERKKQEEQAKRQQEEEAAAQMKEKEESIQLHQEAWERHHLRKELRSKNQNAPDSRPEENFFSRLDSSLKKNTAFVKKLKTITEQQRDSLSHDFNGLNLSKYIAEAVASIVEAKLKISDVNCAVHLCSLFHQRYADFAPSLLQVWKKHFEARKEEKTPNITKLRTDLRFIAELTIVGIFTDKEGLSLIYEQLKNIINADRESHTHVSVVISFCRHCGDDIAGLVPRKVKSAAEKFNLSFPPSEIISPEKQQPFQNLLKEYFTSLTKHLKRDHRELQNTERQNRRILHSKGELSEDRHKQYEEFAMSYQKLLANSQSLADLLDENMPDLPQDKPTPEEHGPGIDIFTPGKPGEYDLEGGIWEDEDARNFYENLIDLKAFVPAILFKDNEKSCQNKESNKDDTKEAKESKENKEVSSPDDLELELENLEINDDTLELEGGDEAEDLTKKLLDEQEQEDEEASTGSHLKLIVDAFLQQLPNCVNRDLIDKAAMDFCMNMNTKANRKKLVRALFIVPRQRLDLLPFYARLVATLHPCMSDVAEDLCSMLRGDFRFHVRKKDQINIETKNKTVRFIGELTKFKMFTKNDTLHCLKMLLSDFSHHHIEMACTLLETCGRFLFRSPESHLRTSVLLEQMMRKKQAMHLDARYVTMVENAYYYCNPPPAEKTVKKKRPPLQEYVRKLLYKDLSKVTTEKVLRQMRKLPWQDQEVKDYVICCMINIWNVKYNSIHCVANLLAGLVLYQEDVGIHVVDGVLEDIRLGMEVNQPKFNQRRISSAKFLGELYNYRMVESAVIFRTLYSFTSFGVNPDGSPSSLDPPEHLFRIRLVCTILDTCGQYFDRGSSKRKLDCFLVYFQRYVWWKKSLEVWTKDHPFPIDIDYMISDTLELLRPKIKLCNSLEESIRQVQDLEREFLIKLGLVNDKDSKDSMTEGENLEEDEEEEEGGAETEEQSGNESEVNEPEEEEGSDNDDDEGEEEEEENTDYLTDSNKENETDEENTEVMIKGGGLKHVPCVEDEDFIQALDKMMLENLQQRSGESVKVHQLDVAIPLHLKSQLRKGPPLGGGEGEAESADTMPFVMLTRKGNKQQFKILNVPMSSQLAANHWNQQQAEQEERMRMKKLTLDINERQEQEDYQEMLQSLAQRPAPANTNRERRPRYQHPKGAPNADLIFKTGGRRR
Sequence of UniProt P52803 (whole entry, looked up): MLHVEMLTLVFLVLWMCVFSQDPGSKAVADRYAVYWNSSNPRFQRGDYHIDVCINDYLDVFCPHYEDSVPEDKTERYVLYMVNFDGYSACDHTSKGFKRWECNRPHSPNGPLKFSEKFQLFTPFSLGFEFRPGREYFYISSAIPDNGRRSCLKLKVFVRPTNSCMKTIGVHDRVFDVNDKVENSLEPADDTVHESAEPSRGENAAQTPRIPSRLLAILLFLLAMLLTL
Sequence of UniProt Q9BZI7 (whole entry, looked up): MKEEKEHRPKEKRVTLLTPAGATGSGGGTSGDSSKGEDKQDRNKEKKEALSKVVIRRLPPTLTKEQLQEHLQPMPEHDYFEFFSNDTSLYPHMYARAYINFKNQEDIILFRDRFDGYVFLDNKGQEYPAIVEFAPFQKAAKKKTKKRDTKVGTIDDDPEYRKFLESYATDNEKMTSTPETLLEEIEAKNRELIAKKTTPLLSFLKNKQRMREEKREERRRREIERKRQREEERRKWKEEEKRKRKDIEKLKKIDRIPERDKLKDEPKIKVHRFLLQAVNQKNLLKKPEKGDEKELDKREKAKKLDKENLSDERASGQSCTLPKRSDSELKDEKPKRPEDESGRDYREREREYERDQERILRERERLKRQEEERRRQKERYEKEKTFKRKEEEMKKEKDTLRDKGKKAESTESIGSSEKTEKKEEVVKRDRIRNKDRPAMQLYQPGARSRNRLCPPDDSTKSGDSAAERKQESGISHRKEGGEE
Sequence of UniProt O75530 (whole entry, looked up): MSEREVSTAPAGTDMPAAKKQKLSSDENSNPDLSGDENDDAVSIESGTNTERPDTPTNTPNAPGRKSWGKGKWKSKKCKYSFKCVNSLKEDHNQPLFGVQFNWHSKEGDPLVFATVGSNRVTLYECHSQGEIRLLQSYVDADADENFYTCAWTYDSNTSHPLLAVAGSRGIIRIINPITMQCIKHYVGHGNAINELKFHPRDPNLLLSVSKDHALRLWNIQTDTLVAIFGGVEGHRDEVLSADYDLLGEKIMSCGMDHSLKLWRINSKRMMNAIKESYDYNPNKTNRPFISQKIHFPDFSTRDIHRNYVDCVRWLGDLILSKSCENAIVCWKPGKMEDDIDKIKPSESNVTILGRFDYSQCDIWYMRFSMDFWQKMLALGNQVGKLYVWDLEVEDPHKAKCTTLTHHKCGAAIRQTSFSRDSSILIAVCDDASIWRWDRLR

| Substance | tested on | test | system | conditions | how to read | endpoint | result |
| --- | --- | --- | --- | --- | --- | --- | --- |
| B1 | IL18BP (Homo sapiens, UniProt O95998) | SPR |  |  |  | koff | 1.9e-05 s⁻¹ |
| EPHA2 fragment, auto-phosphorylated (Homo sapiens) | EFNA5 (Homo sapiens, UniProt P52803) | BLI |  | apparent |  | koff | 0.00883 s⁻¹ |
| UPF3B (Homo sapiens, UniProt Q9BZI7) | UPF2 (Homo sapiens, UniProt Q9HAU5) | BLI |  |  |  | koff | 0.000583 s⁻¹ |
| MBL-A mature, hydroxylysine, hydroxyproline in collagen (Rattus norvegicus, UniProt P19999) | C1S fragment (Homo sapiens) | SPR |  | with: CaCl2 140 mM |  | koff | 0.00217 s⁻¹ |
| YLLFWRDELILLCGSER (macrocyclic peptide; Tyr1-Cys13 thioether, C-terminal amide) | MCL1 172-322 (Homo sapiens) | SPR | peptide |  |  | koff | 0.0278 s⁻¹ |
| human WDHD1 | PP6C (human) | co-immunoprecipitation, IP-MS | CYB5R4 knockout cells | concentration not given | reference: CYB5R4 knockout over parental | log2 fold change | 0.47 |
| PF4/KKO tetramer | GP6 monomer (UniProt Q9HCN6) | SPR |  |  |  | koff | 0.0016 s⁻¹ |
| B2 (designed binder) | EED (Homo sapiens, UniProt O75530) | BLI | designed binder |  |  | koff | 0.00295 s⁻¹ |
| B3 (EFR3A 721-791) | TTC7B/FAM126B FAM126B 1-308 | BLI |  |  |  | koff | 0.000121 s⁻¹ |
| B3 (EFR3A 721-791) | TTC7B/FAM126B 1-308 | BLI |  |  |  | koff | 0.000121 s⁻¹ |
| B4 (human transketolase) | PP6C (human) | co-immunoprecipitation, IP-MS | CYB5R4 knockout cells | concentration not given | reference: CYB5R4 knockout over parental | log2 fold change | -0.6 |

Repeated from above:
| Substance | tested on | test | system | conditions | how to read | endpoint | result |
| --- | --- | --- | --- | --- | --- | --- | --- |
| B1 | IL18BP (Homo sapiens, UniProt O95998) | SPR |  |  |  | koff | 1.9e-05 s⁻¹ |
